Published values collected from several papers.
Protocols differ between the studies behind these lines. ± marks the error that the study gave.
B1: LexA; sequence looked up; chain MKALTARQQEVFDLIRDHISQTGMPPTRAEIAQRLGFRSPNAAEEHLKALARKGVIEIVSGASRGIRLLQEEEEGLPLVGRVAAGEPLLAQQHIEGHYQVDPSLFKPNADFLLRVSGMSMKDIGIMDGDLLAVHKTQDVRNGQVVVARIDDEVTVKRLKKQGNKVELLPENSEFKPIVVDLRQQSFTIEGLAVGVIRNGDWL

Nc1cc2ccccc2c2ccccc12 — EC50 (developmental toxicity; zebrafish (Danio rerio) embryos; 6 to 120 hpf): 8680 nM
O=C(O)c1cc(O)c(O)c(O)c1 — EC50 (hydroxyl radical scavenging, in vitro; 50% scavenging): 410 ± 50 nM
CC(C)(C)OC(=O)N1CCC(OCc2nc(-c3ccncc3)no2)CC1 — EC50 (short-circuit current reduction, agonist, Ussing chamber; mouse descending colon mucosa; apical addition, with: VIP 10 nM): 4800 nM
[H]/N=C(/N)c1ccc(NCc2nc3cc(C(=O)N(CCC(=O)O)c4ccccn4)ccc3n2C)cc1 — EC50 (platelet activation, inhibitor, measured: ATP release; human platelet-rich plasma; 20% plasma, with: thrombin): 31 nM
CC(=O)OCc1ccc(C=O)o1 — EC50 (hydroxyl radical scavenging, in vitro; 50% scavenging): > 20000 nM
CC1(C)CNc2cc(NC(=O)c3cccnc3NCc3ccncc3)ccc21 — EC50 (subintestinal vessel angiogenesis, inhibitor; Danio rerio embryo; 96 hpf, 50% vessel length reduction): 250 nM
CN(C)CCNC(=O)[C@@H](N)CSSC[C@H](N)C(=O)NCCN(C)C — EC50 (L-cystine solubility; 72 h, 20 °C): 163 nM
O=c1c(O[C@@H]2OC[C@@H](O)[C@H](O)[C@H]2O)c(-c2ccc(O)c(O)c2)oc2cc(O)cc(O)c12 — EC50 (hydroxyl radical scavenging, in vitro; 50% scavenging): 460 ± 40 nM
CCCCCCC(=O)N(CCCC/C=C\CCCCCCC(=O)O)C(C)C — EC50 (vasorelaxation; bovine coronary artery rings; with: U46619): 1700 nM
CC[C@H](C)[C@@H]1NC(=O)[C@H](Cc2ccc(O)cc2)NC(=O)[C@@H](N)CSSC[C@@H](C(=O)N2CCC[C@H]2C(=O)N[C@@H](CC(C)C)C(=O)NCC(N)=O)NC(=O)[C@H](CC(N)=O)NC(=O)[C@H](CCC(N)=O)NC1=O — EC50 (contraction amplitude; pregnant human myometrium strips): 1.14 ± 0.56 nM
COC(=O)c1cc(O)c(O)c(O)c1 — EC50 (hydroxyl radical scavenging, in vitro; 50% scavenging): 330 ± 40 nM
COc1cc(-c2cn(-c3ccc(C(C)(C)C)cc3)nn2)[nH]c1/C=N/C12CC3CC(CC(C3)C1)C2 — EC50 (chloride/lactate exchange, ISE chloride efflux; POPC vesicles 0.5 mM; 300 s, pH 7.2, with: sodium lactate 40 mM): 8 ± 1 nM
CCCCNC(=O)C(=O)NCCCC/C=C\CCCCCCC(=O)O — EC50 (vasorelaxation; bovine coronary artery rings; with: U46619): 1700 nM
COc1cc(-c2cn(-c3ccc(C(C)(C)C)cc3)nn2)[nH]c1/C=N/CCO — EC50 (chloride/lactate exchange, ISE chloride efflux; POPC vesicles 0.5 mM; 300 s, pH 7.2, with: sodium lactate 40 mM): 7660 ± 547 nM
COc1ccc(-c2cc(C(=O)Nc3cc(Cl)cnc3C)no2)cc1O — EC50 (membrane potential, rhodamine uptake; isolated mouse liver mitochondria): > 100000 nM
COc1cc2nccc(Oc3ccc(NC(=O)C4(C(=O)Nc5ccc(F)cc5)CC4)cc3)c2cc1OC — EC50 (subintestinal vessel angiogenesis, inhibitor; Danio rerio embryo; 96 hpf, 50% vessel length reduction): 100 nM
CC(C)C[C@H](NC(=O)[C@H]1O[C@@H]1C(=O)O)C(=O)NCCCCN=C(N)N — EC50 (LTP rescue; mouse hippocampal slices; 20 min, with: oligomerized Aβ42): 650 nM
COc1cc(-c2cn(-c3ccc(C(C)(C)C)cc3)nn2)[nH]c1/C=N/C1CCCC1 — EC50 (Cl-/HCO3- exchange, chloride ion-selective electrode; POPC vesicles 0.5 mM; 300 s, pH 7.2, with: NaHCO3 40 mM): 138 ± 17 nM
COc1cc2ncnc(Nc3ccc(F)c(Cl)c3)c2cc1NC(=O)/C=C/CN1CCCCC1 — EC50 (cell proliferation, inhibitor; Ba/F3 expressing EGFR V769_D770insASV, Mus musculus): 500 ± 200 nM
B1 (LexA) — EC50 (nucleosome unwrapping, FRET; wild type nucleosome; pH 7.5): 1900 ± 400 nM
OC[C@H]1O[C@@H](Oc2cc3c(O)cc(O)cc3[o+]c2-c2ccc(O)c(O)c2)[C@H](O[C@@H]2OC[C@@H](O)[C@H](O)[C@H]2O)[C@@H](O)[C@@H]1O — EC50 (hydroxyl radical scavenging, in vitro; 50% scavenging): 690 ± 80 nM
O=[N+]([O-])c1cc2ccccc2c2ccccc12 — EC50 (developmental toxicity; zebrafish (Danio rerio) embryos; 6 to 120 hpf): 1810 nM
Cc1ccc(Nc2nccc(N(C)c3ccc4c(C)n(C)nc4c3)n2)cc1S(N)(=O)=O — EC50 (subintestinal vessel angiogenesis, inhibitor; Danio rerio embryo; 96 hpf, 50% vessel length reduction): 500 nM
CC(=O)c1c(O)cc(O)cc1O[C@@H]1O[C@H](CO)[C@@H](O)[C@H](O)[C@H]1O — EC50 (hydroxyl radical scavenging, in vitro; 50% scavenging): 1400 ± 160 nM
c1cnc2cc3c(cc2n1)[C@@H]1CNC[C@H]3C1 — EC50 (dopamine release, releaser, measured: [3H]dopamine; rat striatal synaptosomes): 50 nM
O=Cc1c(O)cc(O)cc1O[C@@H]1O[C@H](CO)[C@@H](O)[C@H](O)[C@H]1O — EC50 (hydroxyl radical scavenging, in vitro; 50% scavenging): 1300 ± 120 nM
Cc1c(Cl)cccc1NC(=O)c1cc(-c2ccc(F)c(O)c2)on1 — EC50 (membrane potential, rhodamine uptake; isolated mouse liver mitochondria): > 100000 nM
Nc1ccc2ccc3cccc4ccc1c2c34 — EC50 (developmental toxicity; zebrafish (Danio rerio) embryos; 6 to 120 hpf): 1850 nM
CC1CNc2c(cccc2S(=O)(=O)N[C@@H](CCCNC(=N)N)C(=O)N2CC[C@@H](C)C[C@@H]2C(=O)O)C1 (stereo partly drawn) — EC50 (platelet activation, inhibitor, flow cytometry, measured: CD62P; mouse whole blood; 20% whole blood, with: thrombin): 47 nM
OC[C@H]1O[C@@H](Oc2cc3c(O)cc(O)cc3[o+]c2-c2ccc(O)c(O)c2)[C@H](O)[C@@H](O)[C@@H]1O — EC50 (hydroxyl radical scavenging, in vitro; 50% scavenging): 130 nM

Some of these lines once more:
COc1cc(-c2cn(-c3ccc(C(C)(C)C)cc3)nn2)[nH]c1/C=N/C12CC3CC(CC(C3)C1)C2 — EC50 (chloride/lactate exchange, ISE chloride efflux; POPC vesicles 0.5 mM; 300 s, pH 7.2, with: sodium lactate 40 mM): 8 ± 1 nM
CCCCNC(=O)C(=O)NCCCC/C=C\CCCCCCC(=O)O — EC50 (vasorelaxation; bovine coronary artery rings; with: U46619): 1700 nM
COc1cc(-c2cn(-c3ccc(C(C)(C)C)cc3)nn2)[nH]c1/C=N/CCO — EC50 (chloride/lactate exchange, ISE chloride efflux; POPC vesicles 0.5 mM; 300 s, pH 7.2, with: sodium lactate 40 mM): 7660 ± 547 nM
COc1ccc(-c2cc(C(=O)Nc3cc(Cl)cnc3C)no2)cc1O — EC50 (membrane potential, rhodamine uptake; isolated mouse liver mitochondria): > 100000 nM
